Measured values gathered from unrelated publications.
A part holds a random share of what one study measured. Positions count from the first letter of the parent shown.

Series 1
Target: CCND3, cyclin fold, Cln2 fusion (human)
Technique: yeast growth competition, sequencing
Sample: yeast
Setting: weak parent motif
Baseline: not given
Direction: higher = stronger binding
Starting sequence: PKN2 docking peptide (human); VSAVRKLDFSDTM
Substitution | normalised enrichment score
VTAVRKLDFSDTM [S2T] | 1.26
VSAVYKLDFSDTM [R5Y] | 0.133
VSAVRKLEFSDTM [D8E] | 0.751
VSAVRKSDFSDTM [L7S] | 0.145
VSAVRKLDNSDTM [F9N] | -0.188
VSAVRKLDFSQTM [D11Q] | 0.488
VSAVRKLDFCDTM [S10C] | 0.948
VSAVRKLDFEDTM [S10E] | 1.16
VSAVRKLDFADTM [S10A] | 1.13
VSAVRKLDKSDTM [F9K] | 0.324

Series 2
Target: ABI1, truncated, D143A, DHFR fusion (Arabidopsis thaliana)
Technique: DHFR PCA, deep sequencing
Sample: yeast
Setting: methotrexate growth selection, single substitutions
With: (+)-ABA 1.4 µM
Baseline: wild-type fitted maximum
Direction: higher = stronger binding
Starting sequence: PYL1, truncated, DHFR fusion (Arabidopsis thaliana); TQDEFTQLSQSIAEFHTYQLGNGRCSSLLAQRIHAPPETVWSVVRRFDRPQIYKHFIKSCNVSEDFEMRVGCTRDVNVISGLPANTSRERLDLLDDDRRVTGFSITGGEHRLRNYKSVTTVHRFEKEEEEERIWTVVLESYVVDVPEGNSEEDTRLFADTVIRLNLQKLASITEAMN; partner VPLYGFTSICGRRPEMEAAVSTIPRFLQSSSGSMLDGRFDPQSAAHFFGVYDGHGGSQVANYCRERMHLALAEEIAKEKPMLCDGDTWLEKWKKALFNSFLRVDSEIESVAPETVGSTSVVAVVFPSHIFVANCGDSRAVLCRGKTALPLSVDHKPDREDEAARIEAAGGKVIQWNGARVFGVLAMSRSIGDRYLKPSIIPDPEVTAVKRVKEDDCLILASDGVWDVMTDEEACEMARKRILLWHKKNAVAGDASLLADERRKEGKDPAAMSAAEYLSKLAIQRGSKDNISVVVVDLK
Substitution | relative binding score
G23Q | 27.5%
T120N | -2.8%
A30R | 33.9%
Q167C | 31.5%
G81H | 1.38%

Series 3
Target: Histone acetyltransferase KAT6A, winged helix 2, GST fusion (KAT6A, Homo sapiens, UniProt Q92794, residues 85-181)
Technique: protein binding microarray
Molecule type: double-stranded DNA, one strand shown
Sample: in vitro
Tested at: not given
Setting: 8-mer, flanks averaged, mean of 2 arrays, mostly near background
Baseline: not given
Direction: higher = stronger binding
Construct (chain): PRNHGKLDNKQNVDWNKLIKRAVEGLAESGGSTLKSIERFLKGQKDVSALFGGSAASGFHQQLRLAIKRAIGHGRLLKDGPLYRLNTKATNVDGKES
Sequence | E-score
CAAGAGTG | -0.219
AACTGAAC | -0.197
GGACTCAA | -0.167
GAACAGCA | 0.0451
AGATCCCG | 0.203
ACCCCCAC | -0.243
ATGACCCG | -0.111

Other studies, line by line
Molecule | target | test | test system | conditions | scale | endpoint | result
PhoQ, residues 284 288 289 292 302 303 AGCYAI | PhoP, residues 12 14 15 18 19 NYFTV (Escherichia coli, UniProt P23836) | Sort-seq, measured: YFP reporter | E. coli | PhoQ-PhoP variant library, with: 10 µM Mg2+ | baseline: high Mg2+ state, higher = stronger signaling | fold induction | 1.25

Some of these lines once more (series 3):
Sequence | E-score
GGACTCAA | -0.167
GAACAGCA | 0.0451
AGATCCCG | 0.203
ACCCCCAC | -0.243
